# Measurements of several laboratories.
# Each numbered part is a random draw from the data of one study; scales do not carry over between parts.

# Block 1
# Target: RNA binding protein fox-1 homolog 2, RRM domain, GST-SBP tag (RBFOX2, Homo sapiens, UniProt O43251-10, residues 100-194)
# Method: RNA Bind-n-Seq
# Molecule type: RNA
# Sample: in vitro
# Concentration: 365 nM
# Notes: natural RNA segment, single round, ends assumed
# Reference: no-protein control
# Reading: higher = stronger binding
# All sequences stand within: GGGAGUUCUACAGUCCGACGAUC … UGGAAUUCUCGGGUGCCAA
# Construct (chain): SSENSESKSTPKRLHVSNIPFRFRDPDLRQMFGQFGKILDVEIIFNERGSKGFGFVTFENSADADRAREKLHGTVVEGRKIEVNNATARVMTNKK
Oligonucleotide,RBNS enrichment (R)
UUGGGGGCCAUACCUGUUCCAGCUCUGUUCCCAGGGUGGGGCAGGGAGGUGGGGGUUGGGGGAGUAGUGGGGCACGGCUCCUAAGAUCCAGCCCCCAUACUGACAGACGG,0.304
CCAUACCACUGUUCUUGCUAAAAGGAAGCUGCAUAUUUGUGUUCUUUCAUCUGUGGCUCUUUGCUAAAAAUCCGUAGAUCUGAGCUGCAGGUAAACGGAAGGGGCGUCGU,0.392
CUCUGUCCCUCGUGCUUCACUGUGGGCAGCCAGGGACAAGCUUCUGAAAGCAGUGUGAUACCCAAGUCAUAGGUGCUUCUCGUAUGUGAACAGGUGUCAUUCUACAGAUC,0.244
CCUUUACUGCUUUGCGCAUCUCAGAUGCUAACUUGGUUCUUUUUCCAGAAGCCUUUGUAUUGGUUAAAAAUUAUUUUCCAUUGCAGAAGCAGCUGGACUAUGCAAAAAGU,0.353
CCCCUGCCUUCUCAGCCACAUGCUUUUGGCCUUAAACGCUCAGUCUUGUGGAGUUCAACUCUGUCAAACGAUUGGAAAGGGCAUCCAUUUCCAGAUCUUUGGCAUUUUCC,0.955
UUGAUAAUUCUUACUAACACAGAUUAGGGUAUAGGCAUCUAGAGAUGCACUGUCCACUGUAAAUACUAUAAUGAGAGCCACAUCUGUAAUUUAAAUGUUUCUAGUAACCA,0.412
UCAGUUCAGUGGAUAUAUGUAUGUAGAGAAAGAGAGGUAAUAUUUUGGGCUCUUAGCUUAGUCUGUUGUUUCAUGCAAACACCGUUGUAACCAAAAGCUUCUGCACUUUG,0.552
UGUGCGUAUUUAAAUUAGAUUAUUUAUAAUAACCAGAGCCAGCCCUCGCGCUGGCCAGGAUCCUCCUGCCGAGCUGAUGUCGCUCCUGCCCUCUGCCGGGGUCCGGAAGC,0.282
UUGGUAUUACUCUGAAACAAAAUUUAAGUUGGAGUUUCAGGGAUUUAGGGAGUAGUUUUCAUUCUACAUGAACUGAGGUAAUAUUAUGGUAACUCCAAUAUUUGGUUAAA,0.521
GAGAAAACAAACAAUCUUUGAAGAAUUUCUGAAACUGUUUACAAGGAAUUUUGAAAAACAGGGAUGUUUAAAUGAUGCUGGCUCUGUUUUUCUGUAAAUAAAUUUGCAUA,0.971
AUGUUGAAAAUUGUACUGAAAUAAAGUAGAAAAUUGUUACGUACCAUAUUUGUAACUAUCAACUUUUAAAACUUUUAACGUUUUUGUUACAUGCAUUGUAAUUCUGCUUU,0.394
UCUGCAGGCUGCUUGUAGGACUGUUCACCAAGGGGGAUACCAGCAGCAAGAGAGUGCACCCGUUUAGCCCUGGACCCUGUUUCUUACUGUGUGACUUGGCUAGAGUUGGG,1.02

# Block 2
# Target: Interferon regulatory factor 3, full length, phosphomimetic (IRF3, Homo sapiens, UniProt Q14653, residues 1-427, S386D/S396D/S398D/S402D/T404D/S405D)
# Method: protein-binding microarray
# Molecule type: double-stranded DNA, one strand shown
# Sample: in vitro
# Concentration: 2540 nM top
# Notes: 60-bp whole probe
# Added: salmon DNA 0.4 mg/ml
# Reference: random background probes
# Reading: higher = stronger binding
# All sequences stand within: GCCTAGCAC … GTCTTGATTCGCTTGACGCTGCTG
# Residues (chain): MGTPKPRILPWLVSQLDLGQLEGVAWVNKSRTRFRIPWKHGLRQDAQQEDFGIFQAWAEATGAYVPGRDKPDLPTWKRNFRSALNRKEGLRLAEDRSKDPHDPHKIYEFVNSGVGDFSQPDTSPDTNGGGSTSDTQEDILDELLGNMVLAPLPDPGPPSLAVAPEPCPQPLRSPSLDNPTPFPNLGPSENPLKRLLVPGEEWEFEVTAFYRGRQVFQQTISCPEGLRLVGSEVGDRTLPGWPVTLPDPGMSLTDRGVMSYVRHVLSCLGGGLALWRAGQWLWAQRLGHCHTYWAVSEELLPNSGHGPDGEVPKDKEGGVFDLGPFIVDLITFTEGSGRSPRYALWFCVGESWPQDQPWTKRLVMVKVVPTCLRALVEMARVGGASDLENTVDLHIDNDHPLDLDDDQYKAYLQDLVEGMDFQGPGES
Oligonucleotide,fitted relative affinity
TTAGGTATCGGTTTCGGTTTGTGCTAG,9.42 z-score
TTAGATCTCAGAGTGGATTAGTGCTAG,-0.333 z-score
TTATGTTCCCTTTTCCTTTAGTGCTAG,6.85 z-score
GACGGTATTGGGACTGGGGACGTGCTA,-0.288 z-score
GACGGTCTCGGACTGGGGGCGTGCTAG,0.299 z-score
CCAGGCTGAAAGACCTCTGAGTGCTAG,-0.718 z-score
GAAGAACTGAGTCTCGAGACGTGCTAG,-0.609 z-score
GACGGACTGGGGACTGGGGAAGTGCTA,-0.948 z-score
GACGTACTGGGACTGGGGACGTGCTAG,-0.591 z-score
GACGGACTGCTTTTGCTGACGTGCTAG,-0.378 z-score
TCATTTTAAAGTTTCAGACTGTGCTAG,2.48 z-score
GACGGTTTCCTTGCCCTGACGTGCTAG,4.25 z-score
CATTTTAGTAGTTTCTAAAAGTGCTAG,3.17 z-score
GATGGTATCCTTTTCCTGACGTGCTAG,7.81 z-score
GACGATCTCAGTCCCGAGACGTGCTAG,0.287 z-score
GCCGGTATCCTTATCCTGACGTGCTAG,5.39 z-score
TTAGGTTCCCTTTTCCTTAAGTGCTAG,7.72 z-score
GACGGTGTCGGGTATCGGGACGTGCTA,1.22 z-score
TCACCCCTCTAGGTTCTCACTGTGCTA,0.25 z-score
ACAAGTTTCTCCTTTGTAAAGTGCTAG,1.94 z-score
TTAGGTTTCGTGTTTCGGTTAGTGCTA,4.83 z-score
TTAGGTTTCCTTAGCCTTTAGTGCTAG,4.1 z-score
CAGTTTATTTATTTTTACATGTGCTAG,1.58 z-score
TTTTGCTTTCCTTTATGTACGTGCTAG,7.9 z-score
TAAGGTATCCTTTTCCTTTAGTGCTAG,8.44 z-score

# Block 3
# Target: Ras GTPase-activating protein-binding protein 1, C-terminal RGG region (G3BP1, Homo sapiens, UniProt Q13283)
# UniProt Q13283, sequence (whole entry, looked up): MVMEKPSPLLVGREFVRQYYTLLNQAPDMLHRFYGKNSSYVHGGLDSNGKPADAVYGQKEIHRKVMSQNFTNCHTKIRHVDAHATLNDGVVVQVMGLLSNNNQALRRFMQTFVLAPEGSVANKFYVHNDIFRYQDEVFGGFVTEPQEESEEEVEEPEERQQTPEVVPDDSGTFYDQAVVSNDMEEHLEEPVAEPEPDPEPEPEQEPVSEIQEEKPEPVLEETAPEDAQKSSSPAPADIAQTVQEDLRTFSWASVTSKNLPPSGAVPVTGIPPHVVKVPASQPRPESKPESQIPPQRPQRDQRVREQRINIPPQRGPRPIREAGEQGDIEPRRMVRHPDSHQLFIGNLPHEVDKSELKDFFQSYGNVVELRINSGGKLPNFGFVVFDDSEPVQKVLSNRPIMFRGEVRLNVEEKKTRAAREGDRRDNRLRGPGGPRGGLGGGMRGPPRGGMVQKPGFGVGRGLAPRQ
# Method: RNA Bind-n-Seq
# Molecule type: RNA
# Sample: in vitro
# Concentration: 1 µM
# Notes: whole 134-nt RNA, ends assumed
# Added: 150 mM KCl
# Reference: input library
# Reading: higher = stronger binding
# All sequences stand within: GGGAGUUCUACAGUCCGACGAUC … UGGAAUUCUCGGGUGUCAAGG
Oligonucleotide,log2 enrichment
UUGGGCUGCCCAUCACCGUGGCCCAUGUGGAUGGCCAAACCCACAUGUUAUUUGGCUCUGACCGGAUGGAGCUGCUGGCGCACCUGCUGG,-1.54
CAAGUCCUGUGCUACACAUCGUAUGUACCGAAUCGGAGGAAAAAAAGGAAAAAGGAAAGUAUUAUGUUACGCCGUUCGGAUCUGCACUUC,-2.04
GUCCUGUGCUACACAUCGUAUGUACCGAAUCGGGGAAAGGGGUUUGGGGAAAAAGGGGAAAGUAUUAUGUUACGCCGUUCGGAUCUGCAC,2.82
ACCAUGCAGGUGGGCAUCUUUGGGAAGUGGGGCAAGGGGGGGAUAGGGAGGGGGGUUACACUUUGGGAACAGGUGGUCCCAGGUCGUUUC,0.937
UGGCCCUGGUGGCAUGCGGGGAGGAAGAGGUGGCCUCAUGGAUCGUGGUGGUCCCGGUGGAAUGUUCAGAGGUGGCCGUGGUGCAGACAG,1.82
AAGUCCUGUGCUACACAUCGUAUGUACCGAAUCGGAAAAAGGAAAAAAAGGAAAGGAAAGUAUUAUGUUACGCCGUUCGGAUCUGCACUU,-2.21
UCAAGUCCUGUGCUACACAUCGUAUGUACCGAAUCGGGUUUGGUUUGGGUUUGGGAAAGUAUUAUGUUACGCCGUUCGGAUCUGCACUUC,-1.31
UAACUUUAGAGGAGGACCUGAUGGAUAUGGCAGUGGACGUGGAUUUGGGGAUGGCUAUAAUGGGUAUGGAGGAGGACCUGGAGGUGGCAA,-0.932
UCAAGUCCUGUGCUACACAUCGUAUGUACCGAAUCGGAAAAAAAGGAAAGGUGGAAAGUAUUAUGUUACGCCGUUCGGAUCUGCACUUCC,-1.94
CUCAAGUCCUGUGCUACACAUCGUAUGUACCGAAUCGGUUGGGUUGGGUUGGGAAAGUAUUAUGUUACGCCGUUCGGAUCUGCACUUCCA,0.422
UGGCCCUGGUGGCAUGCGGGGAGGAAGAGGUGGCCUCAUGGAUCGUGGUGGUACCGGUGGAAUGUUCAGAGGUGGCCGUGGUGGAGACAG,0.377
CUGUGCUACACAUCGUAUGUACCGAAUCGGGGAAAAAAAGGGGAAAAAAAGGGGAAAGGGGAAAGUAUUAUGUUACGCCGUUCGGAUCUG,0.0271
UCAAGUCCUGUGCUACACAUCGUAUGUACCGAAUCGGCCCGGCCCGGGCCCGGGGAAAGUAUUAUGUUACGCCGUUCGGAUCUGCACUUC,-1.72
UCCUGUGCUACACAUCGUAUGUACCGAAUCAAAUUUUUAAAUUUUUAAAUUUUUUUAAAAAAGUAUUAUGUUACGCCGUUCGGAUCUGCA,-1.17

# Block 4
# Target: Sal-like protein 4, full length isoform A (SALL4, Homo sapiens, UniProt Q9UJQ4, residues 1-1053)
# UniProt Q9UJQ4, sequence (whole entry, looked up): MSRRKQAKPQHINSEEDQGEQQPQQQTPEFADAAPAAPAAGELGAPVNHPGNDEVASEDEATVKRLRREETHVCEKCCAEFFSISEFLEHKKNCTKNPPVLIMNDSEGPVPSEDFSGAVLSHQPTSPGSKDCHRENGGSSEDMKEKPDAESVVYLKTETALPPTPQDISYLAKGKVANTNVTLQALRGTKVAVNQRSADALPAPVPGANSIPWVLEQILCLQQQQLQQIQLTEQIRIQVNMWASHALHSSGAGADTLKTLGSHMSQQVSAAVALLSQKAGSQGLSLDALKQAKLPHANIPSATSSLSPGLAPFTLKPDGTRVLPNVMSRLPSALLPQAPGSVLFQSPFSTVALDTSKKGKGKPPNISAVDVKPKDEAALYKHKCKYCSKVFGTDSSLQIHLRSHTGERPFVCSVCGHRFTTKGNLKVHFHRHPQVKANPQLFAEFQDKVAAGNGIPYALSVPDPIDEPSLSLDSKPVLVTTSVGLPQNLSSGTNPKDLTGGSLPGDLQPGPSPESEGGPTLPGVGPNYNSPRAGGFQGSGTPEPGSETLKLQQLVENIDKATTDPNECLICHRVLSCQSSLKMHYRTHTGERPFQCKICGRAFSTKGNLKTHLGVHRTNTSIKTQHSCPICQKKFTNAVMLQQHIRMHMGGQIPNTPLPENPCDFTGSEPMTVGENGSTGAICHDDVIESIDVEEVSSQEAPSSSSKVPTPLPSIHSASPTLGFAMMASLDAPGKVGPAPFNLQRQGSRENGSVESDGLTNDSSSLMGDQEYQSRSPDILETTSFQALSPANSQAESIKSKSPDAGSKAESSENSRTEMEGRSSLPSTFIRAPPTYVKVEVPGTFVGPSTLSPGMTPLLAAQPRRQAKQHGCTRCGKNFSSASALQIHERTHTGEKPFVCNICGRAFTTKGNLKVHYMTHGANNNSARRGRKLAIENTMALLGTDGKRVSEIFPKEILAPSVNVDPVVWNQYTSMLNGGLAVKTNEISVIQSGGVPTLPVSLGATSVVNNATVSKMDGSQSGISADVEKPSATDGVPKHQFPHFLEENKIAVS
# Method: universal PBM
# Molecule type: double-stranded DNA, one strand shown
# Sample: in vitro
# Concentration: 600 nM
# Notes: 8-mer, flanks averaged, mean of replicates
# Reading: higher = stronger binding
Oligonucleotide,E-score
CAAGCCCA,-0.172
ACTCCGTC,-0.0849
GGGTGAGA,-0.157
AACCAGTT,0.152
CGCGAGCA,-0.235
CCCGGGAA,-0.284
AGGCTACT,-0.0571
AAGGGATA,0.192
CACTTGAA,0.119
AATTCCAA,0.229
AAGCCGAC,-0.261
GATCCCCC,-0.309
TGTTAACA,0.267
CTCCGGAC,-0.289
AACCTGAG,-0.145
CATGGTGC,-0.151
TAACACCA,0.17
GCAGGAGC,-0.222
CACCCCCC,-0.361
CCAAGTCC,-0.211

# Further values, each from its own experiment
Substance,target,test,system,setting,how to read,quantity,value
"PhoQ, residues 284 288 289 292 302 303 TAVSDG","PhoP, residues 12 14 15 18 19 NMSSL (Escherichia coli, UniProt P23836)","Sort-seq, item: YFP reporter",E. coli,"PhoQ-PhoP variant library, added: 10 µM Mg2+","reference: high Mg2+ state, higher = stronger signaling",fold induction,4.61

# For quick reference, copied from above (block 2):
Oligonucleotide,fitted relative affinity
GACGGTCTCGGACTGGGGGCGTGCTAG,0.299 z-score
CCAGGCTGAAAGACCTCTGAGTGCTAG,-0.718 z-score
GAAGAACTGAGTCTCGAGACGTGCTAG,-0.609 z-score
GACGGACTGGGGACTGGGGAAGTGCTA,-0.948 z-score
